Published values from different studies.
Numbered parts are unrelated; each lists some results of a single study. Changes are numbered by the printed parent chain.
Chain of UniProt Q13976 (whole entry, looked up): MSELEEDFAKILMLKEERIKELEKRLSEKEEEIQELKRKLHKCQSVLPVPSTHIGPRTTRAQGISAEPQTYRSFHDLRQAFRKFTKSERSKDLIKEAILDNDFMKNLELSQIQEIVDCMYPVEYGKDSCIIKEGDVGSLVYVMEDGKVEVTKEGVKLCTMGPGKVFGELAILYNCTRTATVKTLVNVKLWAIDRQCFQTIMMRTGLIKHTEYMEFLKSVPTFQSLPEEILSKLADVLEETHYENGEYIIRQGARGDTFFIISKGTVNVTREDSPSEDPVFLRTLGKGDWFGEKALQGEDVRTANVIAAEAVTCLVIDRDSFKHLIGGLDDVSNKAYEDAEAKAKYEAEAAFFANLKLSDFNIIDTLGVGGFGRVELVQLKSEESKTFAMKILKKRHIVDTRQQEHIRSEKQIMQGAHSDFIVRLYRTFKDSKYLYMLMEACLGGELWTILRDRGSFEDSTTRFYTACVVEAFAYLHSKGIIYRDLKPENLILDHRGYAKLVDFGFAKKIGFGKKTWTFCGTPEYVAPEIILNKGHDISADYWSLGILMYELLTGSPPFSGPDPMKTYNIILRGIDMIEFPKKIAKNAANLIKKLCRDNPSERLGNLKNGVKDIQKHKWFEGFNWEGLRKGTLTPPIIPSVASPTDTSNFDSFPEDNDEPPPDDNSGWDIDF

Study 1
Target: Histone acetyltransferase KAT6A, both winged helices, GST fusion (KAT6A, Homo sapiens, UniProt Q92794, residues 1-181)
Technique: protein binding microarray
Molecule type: double-stranded DNA, one strand shown
Matrix: in vitro
Concentration: not given
Notes: 8-mer, flanks averaged, mean of 2 arrays, mostly near background
Reference: not given
Direction: higher = stronger binding
Target sequence (chain): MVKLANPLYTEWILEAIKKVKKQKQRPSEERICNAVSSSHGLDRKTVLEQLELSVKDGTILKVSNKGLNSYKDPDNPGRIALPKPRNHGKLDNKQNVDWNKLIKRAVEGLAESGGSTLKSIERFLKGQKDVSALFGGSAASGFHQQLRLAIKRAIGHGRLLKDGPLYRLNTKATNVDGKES
Strand | E-score
ACATCGGT | -0.0691
GCAACGCA | 0.149
CCTCGCGC | 0.265
CCAATCGA | -0.0861
ATTTCCGG | 0.165
AGATGGTC | -0.163
CTAAAGCA | -0.0919
GCGGCGAA | 0.248

Study 2
Target: RING finger protein unkempt homolog, zinc fingers 1-6, GST-SBP tag (UNK, Homo sapiens, UniProt Q9C0B0, residues 30-357)
Technique: RNA Bind-n-Seq
Molecule type: RNA
Matrix: in vitro
Concentration: not given
Notes: RNA with constant flanks, ends assumed
Reference: input RNA pool
Direction: higher = stronger binding
Shared flanks, not repeated: GGGAGUUCUACAGUCCGACGAUC … CAACAGAGGAUUGAGCAUCA
Construct (chain): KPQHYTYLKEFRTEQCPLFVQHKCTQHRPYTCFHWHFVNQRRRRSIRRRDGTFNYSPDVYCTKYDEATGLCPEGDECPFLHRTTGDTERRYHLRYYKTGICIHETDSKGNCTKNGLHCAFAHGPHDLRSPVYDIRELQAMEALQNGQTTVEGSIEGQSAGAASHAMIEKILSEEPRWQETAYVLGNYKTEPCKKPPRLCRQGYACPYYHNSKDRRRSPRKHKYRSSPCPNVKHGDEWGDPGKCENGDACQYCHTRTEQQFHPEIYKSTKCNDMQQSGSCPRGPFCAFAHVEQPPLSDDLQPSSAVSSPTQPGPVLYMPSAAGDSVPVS
Strand | bound/input enrichment [ratio]
AACGUUGACGUGUUAUAGAUAAGCCUUGUCAUUCUGUAUCAAAAAUCUGUUGUCGUUUUCCCGUAACUUCAAAUUCCAUUACUCCAAAUGGCAUGGUUUUCCGGUUUGUAACCAUAACUA | 0.128
CCAAUUUUCUGGAUUGGACUGAUCAGUUCAGUUUGCUGUGUGUUUGCUCAAACAGAUGAAAACCGAUGUUUAAAAGCAAAUGCCAAAUCAUGUGGAGAAUGUAUACAAGCAGGGCCAAAU | 0.136
CAUAGAGAAAUAAUUUCAUCCCCCAACUGUAGUAAUUGUUACAAUUUUAUAUAAAAAAUUAACCGUAUAUGCAGAAAAUGACCUGAAUUCCAUCCGCAACAAGGACACAUGGCUUUACAU | 17.6
UACCUCAGUACCUCAGUAGGAUGCAAGGACUGUGCCUUCUUUGACUCAGCCAGUGCUUGCUACCGUCAGGCUACAAGCCAAGAGGUCCCCACAGAGUAUUAACAAUAAAUACUUCUGGCC | 0.0759
GAAAAACCAUCUCCUAUCCAGGAGGAGAGCAUUCCCAUUGCUUUAUCUGGUAGGGAUAUCUCCGCCCGAGCAAAAAAUGGAACAGGCAAAAGCGGUGCCUACCUCAUCCCCUUACUUGAA | 0.152
GCAAAUCUCUAAGUUUUUUGGUUUUUUUUUAUUUUUAAUUUUUAUUUUUGCUUGGGCUUGCUCCGUUUGGGAGGGGAUGGUGCUCCGAGAUCUCUGGAAACAGGAGGCCCCUGUCAGCCA | 18.6
AGAGUGGUUGUGGAACCUGUUGGCCCAGUUGGUUUCAAGCCAGAGACAUUCAGAAAGUUUUCCGCUCUAUAUUUGCAUGGUGCUGCGUGAGCGGAGGACCCCUCUGAAUCCUGAAACCCC | 0.109
UCCUGUGCUGUGGGAAGGGGCAGGACGGCUGGUGGGGGGGGCUGAUGUGGCACCUUGCAAACCGAAUAUCUAAGUCCACAAUCUUUGUAAGAAAAGUAUGUUUAUGUUUCAAUCUGAAUC | 0.19

Other studies, line by line
P1: PafA, mature enzyme, eGFP fusion (Elizabethkingia meningoseptica, UniProt Q9KJX5); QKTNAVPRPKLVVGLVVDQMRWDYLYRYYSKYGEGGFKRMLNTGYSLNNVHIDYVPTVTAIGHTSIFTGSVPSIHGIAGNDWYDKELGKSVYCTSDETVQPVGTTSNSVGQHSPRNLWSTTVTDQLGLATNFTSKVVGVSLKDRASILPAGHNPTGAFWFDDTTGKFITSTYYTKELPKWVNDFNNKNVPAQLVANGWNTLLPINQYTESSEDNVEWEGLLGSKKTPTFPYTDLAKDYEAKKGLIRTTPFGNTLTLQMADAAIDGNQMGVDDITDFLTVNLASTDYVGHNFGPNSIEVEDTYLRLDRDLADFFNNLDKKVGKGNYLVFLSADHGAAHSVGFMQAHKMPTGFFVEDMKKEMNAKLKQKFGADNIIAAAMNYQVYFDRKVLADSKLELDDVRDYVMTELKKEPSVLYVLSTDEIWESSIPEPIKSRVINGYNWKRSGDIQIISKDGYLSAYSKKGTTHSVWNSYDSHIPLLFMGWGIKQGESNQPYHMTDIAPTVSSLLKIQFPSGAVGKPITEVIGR
Molecule | target | test | system | conditions | scale | endpoint | result
Cn1cncc1[C@@](O)(COc1ccc(C#N)cc1-c1ccc(OC(F)(F)F)cc1)c1ccc(C#N)cc1 | PRKG1 (Homo sapiens, UniProt Q13976) | cell-free assay, competition with immobilised ligand |  | 1 µM |  | remaining binding | 94%
P1 S95G | inorganic phosphate, free oxyanion | microfluidic competitive inhibition | in vitro, cell-free expressed | not given, derived from inhibition constants, unchanged parent 615000 nM | lower = stronger binding | phosphate dissociation constant | 575 µM
